Assay results gathered from unrelated publications.
Each line is one published result; not all experiments were run side by side. Numbers after ± are the reported error.
B1: enzyme (Bacillus pumilus, UniProt A8FFI9); chain EARSIAWSVDEFFKNREGTFVIQEVKEKSPWVYNKKRAKERFAPQSTFKVANALIGLQTGAVRDEYDIKYWDGVKREIDNWNRDHTLGSGMRDSVVWYYQAMARDIGEERMNHWVKAIHYGNKDISGGIDQFWLSSTLRISPIEQVRFLKQLYEETLPFDLKNMRTVKRMMVQEEEKHATLYGKTGSGSDIGWYVGFIKHEHKTYILATNIKGTGIEAKDITYRILKKYHLMEASV
B2: UGT1A9 (Homo sapiens, UniProt O60656); chain GKLLVVPMDGSHWFTMRSVVEKLILRGHEVVVVMPEVSWQLGRSLNCTVKTYSTSYTLEDLDREFKAFAHAQWKAQVRSIYSLLMGSYNDIFDLFFSNCRSLFKDKKLVEYLKESSFDAVFLDPFDNCGLIVAKYFSLPSVVFARGILCHYLEEGAQCPAPLSYVPRILLGFSDAMTFKERVRNHIMHLEEHLLCHRFFKNALEIASEILQTPVTEYDLYSHTSIWLLRTDFVLDYPKPVMPNMIFIGGINCHQGKPLPMEFEAYINASGEHGIVVFSLGSMVSEIPEKKAMAIADALGKIPQTVLWRYTGTRPSNLANNTILVKWLPQNDLLGHPMTRAFITHAGSHGVYESICNGVPMVMMPLFGDQMDNAKRMETKGAGVTLNVLEMTSEDLENALKAVINDKSYKENIMRLSSLHKDRPVEPLDLAVFWVEFVMRHKGAPHLRPAAHDLTWYQYHSLDVIGFLLAVVLTVAFITFKCCAYGYRKCLGKKGRVKKAHKSKTH
Chain of UniProt P08246 (whole entry, looked up): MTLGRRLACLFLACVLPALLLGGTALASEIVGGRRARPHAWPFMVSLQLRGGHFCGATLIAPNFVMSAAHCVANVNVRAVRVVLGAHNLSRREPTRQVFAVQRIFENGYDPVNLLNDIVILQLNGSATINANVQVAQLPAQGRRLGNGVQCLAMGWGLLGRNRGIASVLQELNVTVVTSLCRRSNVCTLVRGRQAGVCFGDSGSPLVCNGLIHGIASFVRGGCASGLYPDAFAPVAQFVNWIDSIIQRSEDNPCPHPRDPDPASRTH
Chain of UniProt P00760 (whole entry, looked up): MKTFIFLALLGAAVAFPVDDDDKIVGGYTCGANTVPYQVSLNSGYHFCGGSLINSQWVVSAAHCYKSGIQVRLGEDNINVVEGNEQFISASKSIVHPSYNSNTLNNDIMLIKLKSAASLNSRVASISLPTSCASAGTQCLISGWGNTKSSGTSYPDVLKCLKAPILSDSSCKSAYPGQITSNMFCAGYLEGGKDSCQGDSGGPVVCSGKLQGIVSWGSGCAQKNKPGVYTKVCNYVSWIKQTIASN

Substance	target or system	test	test system	setting	measurement	result
B1 (enzyme)	CC(C)(O/N=C(\C(=O)N[C@@H]1C(=O)N2C(C(=O)[O-])=C(C[n+]3ccccc3)CS[C@H]12)c1csc(N)n1)C(=O)O	steady-state kinetics		pH 7	kcat/Km	8100 ± 600 M⁻¹ s⁻¹
CC(C)[C@H](NC(=O)[C@@H]1CCCN1C(=O)[C@H](CCCNC(=N)N)NC(=O)[C@H](CS)NC(=O)[C@H](Cc1c[nH]c2ccccc12)NC(=O)[C@H](CCCNC(=N)N)NC(=O)[C@@H](Cc1ccccc1)NC(=O)[C@H](Cc1c[nH]cn1)NC(=O)[C@H](CCC(=O)O)NC(=O)[C@H](CS)NC(=O)[C@H](CS)NC(=O)[C@H](CCCCN)NC(=O)[C@@H]1CC(=O)N[C@@H](CCCNC(=N)N)C(=O)N[C@@H](C)C(=O)N[C@@H](CC(=O)O)C(=O)N[C@H](Cc2ccc(O)cc2)C(=O)N1)C(N)=O [technetium-99m labelled]			C57 mice, spleen	intravenous, 0.037 MBq, 2 h	tissue uptake	0.48 ± 0.21 %ID/g
NCC(F)(F)C(F)(F)C(F)(F)C(F)(F)C(F)(F)C(F)(F)F	Neutrophil elastase (ELANE, Homo sapiens, UniProt P08246)	substrate		pH 7.5, together with: 20 pM enzyme	kcat	2.37 s⁻¹
insulin lispro			human, type 1 diabetes	subcutaneous, FAST PK setting, carbohydrate interventions required	tmax	1.62 h
CARLSLSWRGLTLCPSK (68Ga-DOTA-labelled)	mouse VAP-1	ex vivo biodistribution	peptide, wild-type mouse, B16 melanoma xenograft, lung	60 min, together with: 500-fold excess unlabelled DOTA-peptide	uptake	0.15 ± 0.01 SUV
rnpA F107W (Bacillus subtilis)		NMR, item: His3		25 °C, Na2SO4 20 mM	pKa	6.31
YGIGVGW			peptide, human polyclonal IgM RF SOR	concentration not given, 5 µg/mL mAb II-481 coated, together with: RF at 50% max binding concentration	inhibition	40%
B2 (UGT1A9)	Oc1ccc(F)cc1	steady-state kinetics		pH 7.4, 37 °C	Km	112 µM
SQSVLYS			peptide, human polyclonal IgM RF STR	concentration not given, 5 µg/mL mAb II-481 coated, together with: RF at 50% max binding concentration	inhibition	0%
insulin human	Serine protease 1 (PRSS1, Bos taurus, UniProt P00760)	proteolytic degradation, RP-HPLC		15 µM, pH 7.4, 37 °C	half-life	0.43 h

Excerpt of the above:
Substance	target or system	test	test system	setting	measurement	result
CC(C)[C@H](NC(=O)[C@@H]1CCCN1C(=O)[C@H](CCCNC(=N)N)NC(=O)[C@H](CS)NC(=O)[C@H](Cc1c[nH]c2ccccc12)NC(=O)[C@H](CCCNC(=N)N)NC(=O)[C@@H](Cc1ccccc1)NC(=O)[C@H](Cc1c[nH]cn1)NC(=O)[C@H](CCC(=O)O)NC(=O)[C@H](CS)NC(=O)[C@H](CS)NC(=O)[C@H](CCCCN)NC(=O)[C@@H]1CC(=O)N[C@@H](CCCNC(=N)N)C(=O)N[C@@H](C)C(=O)N[C@@H](CC(=O)O)C(=O)N[C@H](Cc2ccc(O)cc2)C(=O)N1)C(N)=O [technetium-99m labelled]			C57 mice, spleen	intravenous, 0.037 MBq, 2 h	tissue uptake	0.48 ± 0.21 %ID/g
